# Assay results of several laboratories.
# Each line is one published result; not all experiments were run side by side. ± marks the error that the study gave.
Structure (SMILES),tested on,assay,test system,setting,how to read,quantity,value
Cn1c(Cn2ccc(C(F)(F)F)c(Oc3cc(Cl)cc(C#N)c3)c2=O)n[nH]c1=O,HIV-1,"viral replication, single-round infection",RT mutant G190S,,,EC50,4.6 ± 1.2 nM
CNc1nc(N)ncc1-c1cn([C@@H]2O[C@H](CO[P@@](=O)(N[C@@H](C)C(=O)OC(C)C)Oc3ccccc3)[C@@H](O)[C@@]2(C)F)cn1,Dengue virus 2,,,concentration not given,,antiviral activity,inactive
Cc1cn([C@H]2C[C@H](N=[N+]=[N-])[C@@H](CO)O2)c(=O)[nH]c1=O,HIV-1 T215F,MTT,MT4,,,IC50,114 ± 88.3 nM
Cc1cn([C@H]2C[C@H](N=[N+]=[N-])[C@@H](CO)O2)c(=O)[nH]c1=O,HIV-1,viral replication,"human PBMC, subtype G JV1083, CCR5-tropic clinical isolate",,,EC50,7.33 ± 1.1 nM
COc1ccccc1S(=O)(=O)Nc1ccccc1Sc1ccc([N+](=O)[O-])cc1,HIV-1,"viral replication, refers to: RT activity","H9 expressing A3G, LAI, X4-tropic wild type",day 7,,IC50,21500 nM
NC(=O)c1nc(F)c[nH]c1=O,Japanese encephalitis virus,viral replication,BHK-21,72 h,,EC50,80000 nM
Nc1nc(NC2CC2)c2ncn([C@H]3C=C[C@@H](CO)C3)c2n1,HIV-1 M184V,MTT,MT4,,,IC50,1530 ± 431 nM
CCCC(=O)OCSc1ccccc1C(=O)NCCC(N)=O,HIV-1,viral replication,"human PBMC, subtype C 92BR025, CCR5-tropic clinical isolate",,,EC50,2730 ± 1560 nM
COc1ccccc1C(=O)Nc1ccccc1Oc1ccc(N(C)C)cc1,HIV-1,"viral replication, refers to: RT activity","H9 expressing A3G, LAI, X4-tropic wild type",day 7,,IC50,2500 nM
C#C[C@]1(CO)O[C@@H](n2cnc3c(N)nc(F)nc32)C[C@@H]1O,HIV-1 M184V,,MT4,,,IC50,3.7 ± 1.7 nM
CC(C)(C)OC(=O)N1CCN(C(=O)c2ccccc2Sc2ccc([N+](=O)[O-])cc2)CC1,HIV-1,"viral replication, refers to: RT activity","H9 expressing A3G, LAI, X4-tropic wild type",day 7,,IC50,3900 nM
Cn1cnc(Cn2c(=O)[nH]/c(=N\c3cc4cn(C)nc4cc3Cl)n(Cc3cc(F)c(F)cc3F)c2=O)n1,,,"human, mild renal impairment","oral, 375 mg, treatment-related decreased GFR, Mild severity",,patients with adverse event,0%
COc1ccccc1S(=O)(=O)Nc1ccccc1Sc1ccc(N)cc1,HIV-1,"viral replication, refers to: RT activity","H9 expressing A3G, LAI, X4-tropic wild type",day 7,,IC50,20800 nM
N#CC(C#N)=NNc1cccc(Cl)c1,Staphylococcus aureus,,NCTC 8325,,,MIC,12.5 µM
C=C[C@]1(CO)O[C@@H](n2cnc3c(N)nc(N)nc32)C[C@@H]1O,HIV-1 K65R,MTT,MT4,,,IC50,5.4 ± 6.5 nM
COc1ccccc1C(=O)Nc1ccccc1Oc1ccc([N+](=O)[O-])cc1,HIV-1,"viral replication, refers to: RT activity","H9 expressing A3G, LAI, X4-tropic wild type",day 7,,IC50,4900 nM
COCC(C)n1ccn2cc(C(=O)NCc3ccc(F)cc3F)c(=O)c(O)c2c1=O (centres unmarked),human immunodeficiency virus 1,single-round vector infection,integrase S230N,,,EC50,3 ± 0.3 nM
COc1cc(/C=C2/SC(=S)NC2=O)ccc1OCC(=O)O,"Replicase polyprotein 1ab, main protease (rep, Severe acute respiratory syndrome coronavirus 2, UniProt P0DTD1)","viral replication, mKate2 reporter",SARS-CoV-2,20 µM,,inhibition,-0.978%
O=C(Nc1ccccc1F)c1ccccc1Sc1ccc([N+](=O)[O-])cc1,HIV-1,"viral replication, refers to: RT activity","H9 expressing A3G, LAI, X4-tropic wild type",day 7,,IC50,> 100000 nM
CNC(=O)[C@@H](NC(=O)[C@H](CC(C)C)[C@H](O)C(=O)NO)C(C)(C)C,human fibrinogen,SDS-PAGE,Daboia russelii,"concentration not given, unit not given, with: KL venom",reference: untreated fibrinogen,remaining fibrinogen Aα chain,0.673
Cc1cc(/C=C/C#N)cc(C)c1Nc1nc(Nc2ccc3cc(C#N)ccc3c2)ncc1N,HIV-1,"viral replication, single-round infection",RT mutant Y181I,,,EC50,758 ± 57.2 nM
O=C(NCCN1CCCCC1)c1ccc(-c2ccc(N3CCSCC3)nc2)cc1,SARS-CoV-2,cytopathic effect,USA_WA1/2020,"retest, 8-point, duplicates",,maximum response,83.4%
CC[C@H](C)[C@H](NC(=O)[C@H](CC(C)C)NC(=O)[C@H](Cc1c[nH]c2ccccc12)NC(=O)[C@H](CCC(N)=O)NC(=O)[C@@H](NC(=O)[C@H](Cc1ccccc1)NC(=O)[C@H](C)NC(=O)[C@H](CCCCNC(=O)COCCOCCNC(=O)COCCOCCNC(=O)CC[C@H](NC(=O)CCCCCCCCCCCCCCCCCCC(=O)O)C(=O)O)NC(=O)[C@H](CCC(N)=O)NC(=O)[C@H](C)NC(=O)[C@@H](NC(=O)[C@H](CCCCN)NC(=O)[C@H](CC(=O)O)NC(=O)[C@H](CC(C)C)NC(=O)C(C)(C)NC(=O)[C@@H](NC(=O)[C@H](CO)NC(=O)[C@H](Cc1ccc(O)cc1)NC(=O)[C@H](CC(=O)O)NC(=O)[C@H](CO)NC(=O)[C@@H](NC(=O)[C@H](Cc1ccccc1)NC(=O)[C@@H](NC(=O)CNC(=O)[C@H](CCC(=O)O)NC(=O)C(C)(C)NC(=O)[C@@H](N)Cc1ccc(O)cc1)[C@@H](C)O)[C@@H](C)O)[C@@H](C)CC)[C@@H](C)CC)C(C)C)C(=O)N[C@@H](C)C(=O)NCC(=O)NCC(=O)N1CCC[C@H]1C(=O)N[C@@H](CO)C(=O)N[C@@H](CO)C(=O)NCC(=O)N[C@@H](C)C(=O)N1CCC[C@H]1C(=O)N1CCC[C@H]1C(=O)N1CCC[C@H]1C(=O)N[C@@H](CO)C(N)=O,,refers to: anti-drug antibodies,healthy subjects,"0.5 mg, postbaseline, multiple ascending dose",,subjects with treatment-emergent ADA,0%
NC(=O)CCNC(=O)c1ccccc1S,HIV-1,viral replication,"human PBMC, subtype F 93BR019, CXCR4-tropic clinical isolate",,,EC50,4010 ± 1110 nM
Cc1cc(/C=C/C#N)cc(C)c1Nc1ccnc(Nc2ccc(C#N)cc2)n1,HIV-1,"viral replication, single-round infection",RT mutant V111A,,,EC50,0.3 ± 0.1 nM
N#CC(C#N)=NNc1cccc(Cl)c1,Escherichia coli,checkerboard,tetracycline-resistant,"1 µM, with: tetracycline",,FIC index,1
C[C@]1(CO)O[C@@H](n2cnc3c(N)nc(N)nc32)C[C@@H]1O,HIV-1 M184V,MTT,MT4,,,IC50,> 1000 nM
COc1ccccc1NS(=O)(=O)c1ccccc1Sc1ccc([N+](=O)[O-])cc1,HIV-1,"viral replication, refers to: RT activity","H9 expressing A3G, LAI, X4-tropic wild type",day 7,,IC50,5900 nM
C#C[C@]1(CO)O[C@@H](n2cnc3c(O)ncnc32)C[C@@H]1O,HIV-1 T215F,MTT,MT4,,,IC50,298 ± 96.3 nM
COc1ccccc1NS(=O)(=O)c1ccccc1Sc1ccc(N)cc1,HIV-1,"viral replication, refers to: RT activity","H9 expressing A3G, LAI, X4-tropic wild type",day 7,,IC50,9300 nM
COc1ccc(Cl)cc1NC(=O)CSc1nc2ccccc2nc1N1CCCCC1,SARS-CoV-2,cytopathic effect,USA_WA1/2020,"round 1, 5-point",,maximum response,92%
CC[C@]1(CO)O[C@@H](n2cnc3c(=O)[nH]c(N)nc32)C[C@@H]1O,HIV-1 T215F,MTT,MT4,,,IC50,19.9 ± 3.1 nM
Nc1ncnc2c([C@@H]3N[C@H](CO)[C@@H](O)[C@H]3O)c[nH]c12,Sudan ebolavirus,viral replication,"HeLa, Boniface",3.1 µM,,inhibition,25.8%
O=C1Nc2ccc(Cl)cc2[C@@](C#CC2CC2)(C(F)(F)F)O1,HIV-1,"viral replication, single-round infection",RT mutant V106A/F227L,,,EC50,4.9 ± 0.7 nM
CNc1nc(N)ncc1-c1cn([C@@H]2O[C@H](CO)[C@@H](O)[C@@]2(C)F)cn1,Epstein-Barr virus,,,concentration not given,,antiviral activity,inactive
Cc1cc(/C=C/C#N)cc(C)c1-n1cnc2cnc(Nc3ccc(/C=C/C#N)cc3)nc21,HIV-1,"viral replication, single-round infection",RT mutant G190S,,,EC50,≤ 2.1 nM
Nc1nc(F)nc2c1ncn2[C@H]1C[C@H](O)[C@](CO)(CF)O1,HIV-1 T215F,MTT,MT4,,,IC50,275 ± 195 nM
CC[C@H](C)[C@H](N)C(=O)N[C@@H](Cc1c[nH]c2ccccc12)C(=O)N[C@@H](CC(C)C)C(=O)N[C@H](C(=O)N[C@@H](C)C(=O)N[C@@H](CC(C)C)C(=O)N[C@@H](CCCCN)C(=O)N[C@@H](Cc1ccccc1)C(=O)N[C@@H](CC(C)C)C(=O)NCC(=O)N[C@@H](CCCCN)C(=O)N[C@@H](Cc1c[nH]cn1)C(=O)N[C@@H](C)C(=O)N[C@@H](C)C(=O)N[C@@H](CCCCN)C(=O)N[C@@H](Cc1c[nH]cn1)C(=O)N[C@@H](CC(C)C)C(=O)N[C@@H](C)C(=O)N[C@@H](CCCCN)C(=O)N[C@@H](CCC(N)=O)C(=O)N[C@@H](CCC(N)=O)C(=O)N[C@@H](CC(C)C)C(=O)N[C@@H](CO)C(=O)N[C@@H](CCCCN)C(=O)N[C@@H](CC(C)C)C(=O)O)[C@@H](C)O,Pseudomonas aeruginosa,broth microdilution,PAO1,,,MIC,25 µM

# Some of these lines once more:
Structure (SMILES),tested on,assay,test system,setting,how to read,quantity,value
Cc1cc(/C=C/C#N)cc(C)c1-n1cnc2cnc(Nc3ccc(/C=C/C#N)cc3)nc21,HIV-1,"viral replication, single-round infection",RT mutant G190S,,,EC50,≤ 2.1 nM
Nc1nc(F)nc2c1ncn2[C@H]1C[C@H](O)[C@](CO)(CF)O1,HIV-1 T215F,MTT,MT4,,,IC50,275 ± 195 nM
CC[C@H](C)[C@H](N)C(=O)N[C@@H](Cc1c[nH]c2ccccc12)C(=O)N[C@@H](CC(C)C)C(=O)N[C@H](C(=O)N[C@@H](C)C(=O)N[C@@H](CC(C)C)C(=O)N[C@@H](CCCCN)C(=O)N[C@@H](Cc1ccccc1)C(=O)N[C@@H](CC(C)C)C(=O)NCC(=O)N[C@@H](CCCCN)C(=O)N[C@@H](Cc1c[nH]cn1)C(=O)N[C@@H](C)C(=O)N[C@@H](C)C(=O)N[C@@H](CCCCN)C(=O)N[C@@H](Cc1c[nH]cn1)C(=O)N[C@@H](CC(C)C)C(=O)N[C@@H](C)C(=O)N[C@@H](CCCCN)C(=O)N[C@@H](CCC(N)=O)C(=O)N[C@@H](CCC(N)=O)C(=O)N[C@@H](CC(C)C)C(=O)N[C@@H](CO)C(=O)N[C@@H](CCCCN)C(=O)N[C@@H](CC(C)C)C(=O)O)[C@@H](C)O,Pseudomonas aeruginosa,broth microdilution,PAO1,,,MIC,25 µM
